Assay results from different studies.
Protocols differ between the studies behind these lines.
Organism: Pseudomonas aeruginosa

SMILES | assay | test system | setting | how to read | MIC
CCc1cc(=O)c2c(OCC(O)CNC(C)(C)C)c3ccoc3c(OC)c2o1 (centres unmarked) | broth microdilution | ATCC 15442 | 19 h, 35 °C |  | > 256 µg/mL
CC(C)C[C@H](NC(=O)CNC(=O)[C@H](C)NC(=O)c1ccc(S(=O)(=O)NC[C@H]2O[C@@H](C)[C@@H](O)[C@@H](O)[C@@H]2O)cc1)C(=O)N[C@@H](C)C(=O)NC[C@@H]1CCN(c2cc3c(cc2F)c(=O)c(C(=O)O)cn3C2CC2)C1 | broth microdilution | PA14, P. aeruginosa supernatant in PBS | 10% supernatant, 3 h preincubation |  | 1.56 to 3.13 µM
CCc1cc(=O)c2c(OCC3CO3)c3ccoc3c(OC)c2o1 (centres unmarked) | broth microdilution | ATCC 15442 | 19 h, 35 °C |  | > 256 µg/mL
CC1(C)S[C@@H]2[C@H](NC(=O)[C@H](N)c3ccccc3)C(=O)N2[C@H]1C(=O)O | microbial growth, broth dilution | MTCC1688 | 48 h |  | 100 µg/mL
CCc1cc(=O)c2c(OCC(O)CNC(C)C)c3ccoc3c(OC)c2o1 (centres unmarked) | broth microdilution | ATCC 15442 | 19 h, 35 °C |  | > 256 µg/mL
CC(C)C[C@H](NC(=O)CNC(=O)[C@H](C)NC(=O)c1ccc(S[C@@H]2O[C@H](CO)[C@H](O)[C@H](O)[C@H]2O)cc1)C(=O)N[C@@H](C)C(=O)NC[C@@H]1CCN(c2cc3c(cc2F)c(=O)c(C(=O)O)cn3C2CC2)C1 | broth microdilution | PA14, human plasma with P. aeruginosa supernatant | 50% plasma, 10% supernatant, preincubation under 10 min |  | 3.13 to 12.5 µM
O=C(Nc1ccc(Br)cc1)c1cc(Cl)ccc1O | microbial growth, broth dilution | ATCC27853 |  |  | > 64 µg/mL
CC(C)C[C@H](NC(=O)CNC(=O)[C@H](C)NC(=O)c1ccc(S(=O)(=O)NC[C@H]2O[C@@H](C)[C@@H](O)[C@@H](O)[C@@H]2O)cc1)C(=O)N[C@@H](C)C(=O)N[C@H]1CCN(c2cc3c(cc2F)c(=O)c(C(=O)O)cn3C2CC2)C1 | broth microdilution | PA14, human plasma with LB in PBS | 50% plasma, 10% LB, pre-incubation 3 h |  | 0.78 to 6.25 µM
O=C(Nc1ccc([N+](=O)[O-])cc1F)c1cc(Cl)ccc1O | microbial growth, broth dilution | ATCC27853 |  |  | > 64 µg/mL
C[C@H]1COc2c(N3CCN(C)CC3)c(F)cc3c(=O)c(C(=O)O)cn1c23 |  | ATCC 27853 |  | ≥80% growth inhibition | 3.62 µg/mL
O=C(Nc1ccc(Cl)cc1)c1cc(Cl)ccc1O | microbial growth, broth dilution | ATCC27853 |  |  | > 64 µg/mL
Cc1ccc(C(C)C)cc1.Cc1ccc(C(C)C)cc1.[Cl][Ru][Cl].[Cl][Ru][Cl] | broth microdilution | ATCC 25619 | 37 °C |  | > 1000 µg/mL
O=C(Nc1ccc(Br)c(C(F)(F)F)c1)c1ccccc1O | microbial growth, broth dilution | ATCC27853 |  |  | > 64 µg/mL
CC(C)C[C@H](NC(=O)CNC(=O)[C@H](C)NC(=O)c1ccc(S[C@@H]2O[C@H](CO)[C@H](O)[C@H](O)[C@H]2O)cc1)C(=O)N[C@@H](C)C(=O)N[C@H]1CCN(c2cc3c(cc2F)c(=O)c(C(=O)O)cn3C2CC2)C1 | broth microdilution | PA14, P. aeruginosa supernatant in PBS | 10% supernatant, 3 h preincubation |  | 0.195 to 0.78 µM

Excerpt of the above:
SMILES | assay | test system | setting | how to read | MIC
O=C(Nc1ccc([N+](=O)[O-])cc1F)c1cc(Cl)ccc1O | microbial growth, broth dilution | ATCC27853 |  |  | > 64 µg/mL
CC(C)C[C@H](NC(=O)CNC(=O)[C@H](C)NC(=O)c1ccc(S[C@@H]2O[C@H](CO)[C@H](O)[C@H](O)[C@H]2O)cc1)C(=O)N[C@@H](C)C(=O)NC[C@@H]1CCN(c2cc3c(cc2F)c(=O)c(C(=O)O)cn3C2CC2)C1 | broth microdilution | PA14, human plasma with P. aeruginosa supernatant | 50% plasma, 10% supernatant, preincubation under 10 min |  | 3.13 to 12.5 µM
